Measured values pooled from the literature.
Every numbered part comes from another study and shows a few of its results, in no order. Values joined by “and” are separate records of one study, mostly repeats; a detail may differ.
Chain of UniProt Q07002 (whole entry, looked up): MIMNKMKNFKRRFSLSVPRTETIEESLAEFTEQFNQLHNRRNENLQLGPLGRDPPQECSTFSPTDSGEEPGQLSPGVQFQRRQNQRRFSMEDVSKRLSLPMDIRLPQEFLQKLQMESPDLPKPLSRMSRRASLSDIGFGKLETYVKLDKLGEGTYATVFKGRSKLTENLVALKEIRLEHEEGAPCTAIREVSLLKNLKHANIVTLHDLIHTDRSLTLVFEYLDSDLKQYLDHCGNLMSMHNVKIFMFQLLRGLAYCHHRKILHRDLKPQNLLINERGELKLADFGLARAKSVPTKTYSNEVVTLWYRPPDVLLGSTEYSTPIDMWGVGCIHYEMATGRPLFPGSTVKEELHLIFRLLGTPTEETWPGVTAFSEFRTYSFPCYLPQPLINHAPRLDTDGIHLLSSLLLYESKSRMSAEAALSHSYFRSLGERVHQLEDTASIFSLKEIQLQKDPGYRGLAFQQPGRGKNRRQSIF
Chain of UniProt Q8TBX8 (whole entry, looked up): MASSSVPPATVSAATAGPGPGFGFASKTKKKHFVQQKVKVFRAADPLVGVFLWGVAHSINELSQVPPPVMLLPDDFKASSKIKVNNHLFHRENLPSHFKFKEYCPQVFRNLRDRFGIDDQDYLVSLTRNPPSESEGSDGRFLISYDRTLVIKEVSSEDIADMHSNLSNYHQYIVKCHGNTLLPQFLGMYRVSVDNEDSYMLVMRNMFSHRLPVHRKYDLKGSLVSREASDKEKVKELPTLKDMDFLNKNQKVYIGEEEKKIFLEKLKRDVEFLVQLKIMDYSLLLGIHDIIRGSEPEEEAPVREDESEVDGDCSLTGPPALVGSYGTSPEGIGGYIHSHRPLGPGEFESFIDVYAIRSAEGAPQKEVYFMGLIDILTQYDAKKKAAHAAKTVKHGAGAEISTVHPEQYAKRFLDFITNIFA
Chain of UniProt Q96NX5 (whole entry, looked up): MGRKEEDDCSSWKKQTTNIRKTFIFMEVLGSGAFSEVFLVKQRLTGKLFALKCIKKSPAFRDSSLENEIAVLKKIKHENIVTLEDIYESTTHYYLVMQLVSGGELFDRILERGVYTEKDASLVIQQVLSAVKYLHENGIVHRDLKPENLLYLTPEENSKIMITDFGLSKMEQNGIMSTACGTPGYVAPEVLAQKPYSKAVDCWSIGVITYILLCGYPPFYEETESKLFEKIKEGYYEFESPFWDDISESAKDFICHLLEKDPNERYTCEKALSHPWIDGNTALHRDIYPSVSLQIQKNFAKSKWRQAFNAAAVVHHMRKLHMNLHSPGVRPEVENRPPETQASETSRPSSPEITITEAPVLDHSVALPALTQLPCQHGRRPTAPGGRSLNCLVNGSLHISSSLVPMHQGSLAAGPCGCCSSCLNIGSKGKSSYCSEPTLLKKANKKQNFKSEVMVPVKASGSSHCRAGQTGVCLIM
Chain of UniProt Q13131 (whole entry, looked up): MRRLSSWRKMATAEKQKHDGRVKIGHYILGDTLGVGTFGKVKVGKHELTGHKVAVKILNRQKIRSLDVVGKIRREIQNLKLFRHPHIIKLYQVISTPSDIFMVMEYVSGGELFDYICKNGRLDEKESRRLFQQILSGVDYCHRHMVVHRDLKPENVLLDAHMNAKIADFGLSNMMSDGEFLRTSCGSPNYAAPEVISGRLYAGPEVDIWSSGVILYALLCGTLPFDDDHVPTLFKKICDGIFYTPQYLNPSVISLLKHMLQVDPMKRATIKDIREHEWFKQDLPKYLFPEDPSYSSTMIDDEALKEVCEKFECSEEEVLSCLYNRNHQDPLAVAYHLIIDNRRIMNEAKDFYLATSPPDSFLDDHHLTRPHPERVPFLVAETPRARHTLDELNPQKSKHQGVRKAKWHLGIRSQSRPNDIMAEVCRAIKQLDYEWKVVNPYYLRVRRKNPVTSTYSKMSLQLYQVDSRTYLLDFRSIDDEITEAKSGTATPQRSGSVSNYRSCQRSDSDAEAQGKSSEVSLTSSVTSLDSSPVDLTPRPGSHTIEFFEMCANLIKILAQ
Chain of UniProt Q9BX84 (whole entry, looked up): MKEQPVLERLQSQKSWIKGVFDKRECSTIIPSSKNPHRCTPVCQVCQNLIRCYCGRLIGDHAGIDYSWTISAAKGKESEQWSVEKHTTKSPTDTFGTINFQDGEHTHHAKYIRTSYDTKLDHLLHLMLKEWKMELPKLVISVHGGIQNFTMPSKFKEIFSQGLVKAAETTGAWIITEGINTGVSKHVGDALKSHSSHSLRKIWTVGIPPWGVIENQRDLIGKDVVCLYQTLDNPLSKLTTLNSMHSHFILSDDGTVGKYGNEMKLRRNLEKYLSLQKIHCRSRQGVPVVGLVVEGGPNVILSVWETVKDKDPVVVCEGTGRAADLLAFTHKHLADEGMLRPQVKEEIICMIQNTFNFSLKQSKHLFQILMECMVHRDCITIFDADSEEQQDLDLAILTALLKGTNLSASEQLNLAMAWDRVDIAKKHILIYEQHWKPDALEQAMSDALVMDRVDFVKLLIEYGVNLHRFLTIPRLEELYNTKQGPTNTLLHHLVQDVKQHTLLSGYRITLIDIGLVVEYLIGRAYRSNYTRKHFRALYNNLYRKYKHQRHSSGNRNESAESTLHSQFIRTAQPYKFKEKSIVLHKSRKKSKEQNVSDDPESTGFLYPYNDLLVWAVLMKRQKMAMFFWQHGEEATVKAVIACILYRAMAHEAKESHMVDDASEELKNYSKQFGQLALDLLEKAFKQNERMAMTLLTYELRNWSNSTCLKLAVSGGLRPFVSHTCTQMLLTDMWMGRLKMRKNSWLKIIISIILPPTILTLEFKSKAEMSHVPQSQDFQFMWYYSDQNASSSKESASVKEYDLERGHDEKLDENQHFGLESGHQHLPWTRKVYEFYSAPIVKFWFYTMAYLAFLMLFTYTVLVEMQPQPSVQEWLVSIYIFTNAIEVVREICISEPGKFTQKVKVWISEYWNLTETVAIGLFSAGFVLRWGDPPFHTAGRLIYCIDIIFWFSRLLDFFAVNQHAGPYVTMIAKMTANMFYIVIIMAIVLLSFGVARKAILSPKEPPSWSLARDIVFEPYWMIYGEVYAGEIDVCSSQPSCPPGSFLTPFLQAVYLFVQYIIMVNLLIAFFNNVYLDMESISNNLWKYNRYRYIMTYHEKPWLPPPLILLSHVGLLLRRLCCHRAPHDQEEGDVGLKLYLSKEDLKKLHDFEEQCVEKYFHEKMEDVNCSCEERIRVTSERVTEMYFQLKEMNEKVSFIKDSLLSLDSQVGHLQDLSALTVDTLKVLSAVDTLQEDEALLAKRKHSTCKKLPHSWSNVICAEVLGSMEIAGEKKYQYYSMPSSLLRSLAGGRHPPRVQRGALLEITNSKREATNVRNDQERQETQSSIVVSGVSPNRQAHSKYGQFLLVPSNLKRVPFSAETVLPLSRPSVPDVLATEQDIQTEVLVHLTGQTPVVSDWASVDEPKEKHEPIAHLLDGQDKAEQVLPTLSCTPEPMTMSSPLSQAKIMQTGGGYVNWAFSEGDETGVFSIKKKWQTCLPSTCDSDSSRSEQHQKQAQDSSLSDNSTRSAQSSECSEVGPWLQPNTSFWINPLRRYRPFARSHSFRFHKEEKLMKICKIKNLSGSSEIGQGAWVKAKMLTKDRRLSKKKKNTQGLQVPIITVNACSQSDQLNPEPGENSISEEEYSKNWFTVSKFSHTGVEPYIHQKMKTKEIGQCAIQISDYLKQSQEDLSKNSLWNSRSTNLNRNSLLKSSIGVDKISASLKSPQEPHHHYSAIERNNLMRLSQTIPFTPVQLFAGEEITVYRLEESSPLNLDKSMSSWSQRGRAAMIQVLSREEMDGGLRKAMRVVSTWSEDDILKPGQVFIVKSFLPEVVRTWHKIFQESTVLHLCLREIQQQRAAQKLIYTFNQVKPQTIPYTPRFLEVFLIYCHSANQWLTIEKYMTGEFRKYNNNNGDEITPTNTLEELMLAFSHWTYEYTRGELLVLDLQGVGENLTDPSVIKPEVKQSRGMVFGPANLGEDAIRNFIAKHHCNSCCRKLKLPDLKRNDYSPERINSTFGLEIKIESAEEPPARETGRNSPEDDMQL
Chain of UniProt Q32MK0 (whole entry, looked up): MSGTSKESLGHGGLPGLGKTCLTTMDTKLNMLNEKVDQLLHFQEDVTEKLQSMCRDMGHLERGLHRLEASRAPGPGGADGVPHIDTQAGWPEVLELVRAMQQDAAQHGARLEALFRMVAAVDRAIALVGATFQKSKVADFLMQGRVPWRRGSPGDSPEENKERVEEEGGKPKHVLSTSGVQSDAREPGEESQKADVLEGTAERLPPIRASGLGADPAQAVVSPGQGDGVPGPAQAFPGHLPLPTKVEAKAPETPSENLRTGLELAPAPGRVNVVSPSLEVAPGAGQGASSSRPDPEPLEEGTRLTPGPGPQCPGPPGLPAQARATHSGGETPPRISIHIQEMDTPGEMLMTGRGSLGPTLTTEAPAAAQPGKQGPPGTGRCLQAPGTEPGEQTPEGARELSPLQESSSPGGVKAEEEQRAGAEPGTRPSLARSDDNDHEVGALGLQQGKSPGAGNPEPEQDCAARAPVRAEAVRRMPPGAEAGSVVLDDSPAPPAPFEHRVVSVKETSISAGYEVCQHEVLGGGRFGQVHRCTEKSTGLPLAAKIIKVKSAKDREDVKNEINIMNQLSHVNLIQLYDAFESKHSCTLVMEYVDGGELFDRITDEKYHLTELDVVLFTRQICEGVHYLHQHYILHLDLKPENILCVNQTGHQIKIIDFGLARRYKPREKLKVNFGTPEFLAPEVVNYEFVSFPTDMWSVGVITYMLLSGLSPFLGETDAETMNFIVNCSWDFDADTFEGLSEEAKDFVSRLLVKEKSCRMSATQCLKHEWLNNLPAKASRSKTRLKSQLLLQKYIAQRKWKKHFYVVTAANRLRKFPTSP

Series 1
Effect on: AlphaScreen signal
Method: AlphaScreen counter screen
Sample: His6 peptide without bromodomain
Concentration: 50 µM
Notes: assay interference check
Structure (SMILES) | inhibition [%]
COc1cc2c(cc1OC)-c1[nH]nc(Nc3cccc(F)c3)c1C2 | 59
Nc1nc(SCc2c(Cl)cccc2Cl)c2nc[nH]c2n1 | 35.4
COc1cc(Nc2ncc3c(n2)-c2ccc(Cl)cc2C(c2c(F)cccc2OC)=NC3)ccc1C(=O)O | 17.1
CN(C)c1cccc(-c2nc(-c3ccncc3)cnc2N)c1 | 38.9
COc1ccc(-c2[nH]c3ncccc3c2CN2CCCC2)cc1 | -1.65
Cc1[nH]nc(-c2ccc(O)c(C)c2O)c1Oc1ccc(Br)cc1 | 35.7
Cc1ccc(NC(=O)c2cccc(N(C)C)c2)cc1NC(=O)c1ccc(O)cc1 | 37.6
c1coc(-c2nnc(CSc3nnc(NC4CC4)s3)o2)c1 | 0.9
COc1cc2ncnc(Nc3ccc(F)c(Cl)c3)c2cc1NC(=O)/C=C/CN1CCCCC1 | 54.8
C=CCn1c(=O)c2cnc(Nc3ccc(N4CCN(C)CC4)cc3)nc2n1-c1cccc(C(C)(C)O)n1 | 20.1
CN1CCC(CNc2ccc3ncc(-c4cccc(OC(F)(F)F)c4)n3n2)CC1 | 31.4
Cc1cn(-c2cc(NC(=O)c3ccc(C)c(Nc4nccc(-c5cccnc5)n4)c3)cc(C(F)(F)F)c2)cn1 | 32.6
O=c1[nH]cnc2ccc(NC(=S)Nc3cccc4ccccc34)cc12 | 20.3
Cc1cc(Nc2cc(CN3CCOCC3)c3nc(C)c(Cc4ccc(Cl)cc4F)n3n2)n[nH]1 | 34.4
COc1cc2ncnc(Nc3ccc(NC(=O)c4ccccc4)cc3)c2cc1OC | 9.5
Brc1ccc(-c2nc(-c3c[nH]c4ccccc34)[nH]c2-c2ccccc2)cc1 | 81.2
COc1cc(OC)c(C=C2C(=O)Nc3ccccc32)c(OC)c1 | 55.8

Series 2
Cell line: mouse MPNST tumor cells
Method: high-content nuclear imaging
Item: cell number
Concentration: 10 µM
Time: 12 h
Notes: mean of 2 replicates
Baseline: plate mean
Reading: higher = more cells
Compound | nuclei count
CN(C)CCC=C1c2ccccc2CCc2ccccc21 | -0.441 z-score
CCn1c(-c2nonc2N)nc2cncc(CNC3CCNCC3)c21 | -1.29 z-score
CCC(=O)NC[C@H](Cc1ccc(OCCc2nc(-c3ccccc3)oc2C)cc1)N/C(C)=C\C(=O)c1ccc(C(F)(F)F)cc1 | -0.588 z-score
CC(NC(=O)Cc1cc(F)cc(F)c1)C(=O)NC1C(=O)N(C)c2ccccc2-c2ccccc21 (centres unmarked) | -0.87 z-score
CCCn1c(=O)c(C)cn2nc(N)nc12 | -0.602 z-score
CCOC(=O)[C@@](C)(N)Cc1ccc(O)c(O)c1 | 0.844 z-score
Cc1cc2c(cc1N1C(=O)c3cccc4c(CCCO)ccc(c34)C1=O)n(C)c(=O)n2C | -3.66 z-score and -3.87 z-score
CCOc1cc(C(=O)Nc2ccc(Cl)c(-c3nc4ccccc4[nH]3)c2)cc(OCC)c1OCC | 5.19 z-score
COc1cc2c(cc1OC)C(=O)C(CC1CCN(Cc3ccccc3)CC1)C2 (centres unmarked) | 0.897 z-score
O=C(O)c1c(Sc2ccccc2)c2cc(Cl)ccc2n1Cc1ccc(Cl)cc1 | 0.0367 z-score
Nc1c2c(nc3ccccc13)CCCC2 | -0.349 z-score and -0.805 z-score

Series 3
Target: Serine/threonine-protein kinase Nek7 (NEK7, Homo sapiens, UniProt Q8TDX7)
Effect on: enzyme activity
Action: inhibitor
Concentration: 0.5 µM
Baseline: control
Target sequence (Q8TDX7 1-302): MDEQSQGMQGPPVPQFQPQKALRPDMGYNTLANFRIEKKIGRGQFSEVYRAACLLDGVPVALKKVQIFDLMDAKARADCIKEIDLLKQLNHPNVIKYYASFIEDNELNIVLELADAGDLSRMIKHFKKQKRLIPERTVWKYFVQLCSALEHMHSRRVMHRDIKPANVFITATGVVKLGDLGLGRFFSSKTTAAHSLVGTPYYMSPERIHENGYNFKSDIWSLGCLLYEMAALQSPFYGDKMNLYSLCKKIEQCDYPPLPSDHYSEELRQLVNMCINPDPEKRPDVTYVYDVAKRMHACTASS
SMILES | remaining activity
O=c1c(-c2ccc(F)cc2)c(-c2ccncc2)[nH]n1-c1ccc(Cl)cc1 | 90.1%
O=C(c1ccccc1)c1ccc(N2CCOCC2)cc1O | 104%
O=Nc1c(-c2c(O)[nH]c3ccccc23)[nH]c2ccccc12 | 106%
CC(C)n1cnc2c(Nc3cccc(Cl)c3)nc(NCCO)nc21 | 93.9%
CCCCc1c(-c2ccc(O)cc2)[nH]c2nccnc12 | 111%
COc1cc2c(Nc3ccc(Br)cc3F)ncnc2cc1OCC1CCN(C)CC1 | 99%
O=C1c2ccccc2-c2nc3nnnn3nc21 | 83.6%
O=C1NC(=O)/C(=C/c2ccc3c(c2)OC(F)(F)O3)S1 | 105%
O=C(O)/C=C/c1cc(Br)c(Br)c(Br)c1Br | 98%
N#CC(c1ccnc(NCCc2cccnc2)n1)c1nc2ccccc2s1 (centres unmarked) | 88.2%
NC(=O)c1ccc(-c2nc(-c3ccc4c(c3)OCCO4)c(-c3ccccn3)[nH]2)cc1 | 98.5%
CC(C)N(CCC(=O)c1ccc2ccccc2c1)Cc1ccccc1 | 95.2%
CC(C)(C)c1nc2c3cc[nH]c(=O)c3c3cc(F)ccc3c2[nH]1 | 76.5%
CNc1cc2c(Nc3cccc(Br)c3)ncnc2cn1 | 90.4%
N#C/C(=C(/N)SC1C=CC=CC1)c1cccc(C(O)c2ccncc2)c1 (centres unmarked) | 96.2%
c1cc(-c2cnn3cc(-c4ccc(OCCN5CCCCC5)cc4)cnc23)ccn1 | 87.3%
CCN(CC)CCCCN1c2ccccc2Oc2ccc(Cl)cc21 | 89.7%
C[C@@H](N)[C@H]1CC[C@H](C(=O)Nc2ccncc2)CC1 | 106%
COc1cc2c(N3CCN(C(=O)Nc4ccc(OC(C)C)cc4)CC3)ncnc2cc1OCCCN1CCCCC1 | 93.4%
Nc1nc(Nc2ccc(S(N)(=O)=O)cc2)nn1C(=S)Nc1c(F)cccc1F | 82.6%
FC(F)(F)c1ccc(/C=C/c2nc(COc3ccc(CCCCn4ccnn4)cc3)co2)cc1 | 94.6%

Series 4
Compound: COc1cccc(CNC(=O)c2nc3scc(COCc4ccc(C(=O)O)cc4)c3c(=O)[nH]2)c1
Effect on: cell-free assay
Method: competition with immobilised ligand
Concentration: 1 µM
target | remaining binding [%]
Tyrosine-protein kinase ZAP-70 (ZAP70, Homo sapiens, UniProt P43403) | 67.1
Myosin light chain kinase (MYLK3, Homo sapiens, UniProt Q32MK0) | 72.8
Cyclin-dependent kinase 18 (CDK18, Homo sapiens, UniProt Q07002) | 100
Muscle, skeletal receptor tyrosine-protein kinase (MUSK, Homo sapiens, UniProt O15146) | 100
NUAK family SNF1-like kinase 1 (NUAK1, Homo sapiens, UniProt O60285) | 86.6
Serine/threonine-protein kinase Nek2 (NEK2, Homo sapiens, UniProt P51955) | 100
Transient receptor potential cation channel subfamily M member 6 (TRPM6, Homo sapiens, UniProt Q9BX84) | 81.8
Calcium/calmodulin-dependent protein kinase type 1G (CAMK1G, Homo sapiens, UniProt Q96NX5) | 100
Dual specificity tyrosine-phosphorylation-regulated kinase 2 (DYRK2, Homo sapiens, UniProt Q92630) | 100
Atypical kinase COQ8A, mitochondrial (COQ8A, Homo sapiens, UniProt Q8NI60) | 100
Eukaryotic translation initiation factor 2-alpha kinase 1 (EIF2AK1, Homo sapiens, UniProt Q9BQI3) | 88
Serine/threonine-protein kinase tousled-like 2 (TLK2, Homo sapiens, UniProt Q86UE8) | 100
Ribosomal protein S6 kinase alpha-6, N-terminal kinase domain (RPS6KA6, Homo sapiens, UniProt Q9UK32) | 63.5
5'-AMP-activated protein kinase catalytic subunit alpha-1 (PRKAA1, Homo sapiens, UniProt Q13131) | 70.3
Dual specificity testis-specific protein kinase 1 (TESK1, Homo sapiens, UniProt Q15569) | 82.8
Phosphatidylinositol 5-phosphate 4-kinase type-2 gamma (PIP4K2C, Homo sapiens, UniProt Q8TBX8) | 74.7
Fibroblast growth factor receptor 3 (FGFR3, Homo sapiens, UniProt P22607) | 100
Serine/threonine-protein kinase ULK2 (ULK2, Homo sapiens, UniProt Q8IYT8) | 70.8
eIF-2-alpha kinase GCN2, C-terminal kinase domain (EIF2AK4, Homo sapiens, UniProt Q9P2K8, S808G) | 100

Some of these lines once more (series 4):
target | remaining binding [%]
Dual specificity tyrosine-phosphorylation-regulated kinase 2 (DYRK2, Homo sapiens, UniProt Q92630) | 100
Atypical kinase COQ8A, mitochondrial (COQ8A, Homo sapiens, UniProt Q8NI60) | 100
Eukaryotic translation initiation factor 2-alpha kinase 1 (EIF2AK1, Homo sapiens, UniProt Q9BQI3) | 88
Serine/threonine-protein kinase tousled-like 2 (TLK2, Homo sapiens, UniProt Q86UE8) | 100
Ribosomal protein S6 kinase alpha-6, N-terminal kinase domain (RPS6KA6, Homo sapiens, UniProt Q9UK32) | 63.5
5'-AMP-activated protein kinase catalytic subunit alpha-1 (PRKAA1, Homo sapiens, UniProt Q13131) | 70.3
